Values quoted from earlier work as cited in several papers.
Each line is one published result; not all experiments were run side by side. ± marks the error that the study gave. ≈ marks a conversion by molar mass, not a printed value.

For `CN(C)c1cccc2c(S(=O)(=O)NCCNC(=O)CCCC[C@@H]3SC[C@@H]4NC(=O)N[C@@H]43)cccc12`, “fluorescence quantum yield” read 0.06.
`CC(=O)O[C@H]1C2=C(C(=O)C(OC(=O)c3ccc(Cl)cc3)=C(C(C)C)C2=O)[C@@]2(C)CCCC(C)(C)[C@@H]2[C@@H]1OC(=O)c1ccc(Cl)cc1` has a GI50 of greater than 30 µM (MEL1).
`Oc1ccc(O)c(CN(CCN(Cc2ccccn2)Cc2cc(O)ccc2O)Cc2ccccn2)c1.[Br-].[Br-].[Mn+2]` — result for “reduction potential Mn(III)/Mn(II)”: 725 mV vs Ag/AgCl (concentration not given).
`Cc1ccccc1-c1cc(N2CCNCC2)ncc1N(C)C(=O)C(C)(C)c1cc(C(F)(F)F)cc(C(F)(F)F)c1` has an AUC(0-inf) of 5890 ng·h/mL (healthy volunteers, plasma; oral, 300 mg, fasted, fixed-dose combination, together with: palonosetron 0.5 mg).
`N=S(=O)(c1ccccc1)N1CCCCC1` (centres unmarked) has a recovery of 100% (PBS; 24 h, pH 7).
For `C=C[C@@H]1C[C@]1(NC(=O)[C@@H]1C[C@@H](Oc2cc(-c3ccccc3)nc3cc(OC)ccc23)CN1C(=O)[C@@H](NC(=O)OC(C)(C)C)C(C)(C)C)C(=O)NS(=O)(=O)C1CC1`, the concentration was 580 nM (rat, plasma; oral, 20 mg/kg, 4 h).
The pKa2 of `CC(C)S(=O)(=O)c1ccc(S(=O)(=O)C(C)C)c(O)c(=O)c1O` is reported as 7.6.
`CCCCCCC[C@@H](CC(=O)O)OC(=O)C[C@@H](CCCCCCC)O[C@@H]1O[C@@H](C)[C@H](O)[C@@H](O)[C@H]1O` — result for “minimum surface tension”: 27.4 ± 0.2 mN/m (pH 8).
`O=C(O)CCC(=O)N([O-])CCCCCNC(=O)CCC(=O)N([O-])CCCCCNC(=O)CCC(=O)N([O-])CCCCCO.[Fe+3]`: “log stability constant” 27.8 ± 0.3 (item: Fe).
`CN1CCc2nc(C(=O)N[C@@H]3C[C@@H](C(=O)N(C)C)CC[C@@H]3NC(=O)C(=O)Nc3ccc(Cl)cn3)sc2C1`: “non-renal clearance fraction” roughly 50% (human; share of total clearance).
For `Cc1ccccc1-c1cc(N2CC[N+](C)([O-])CC2)ncc1NC(=O)C(C)(C)c1cc(C(F)(F)F)cc(C(F)(F)F)c1`, the exposure ratio was 3% (systemic circulation; baseline: metabolite over netupitant).
The transformation of `CC(C)OC(=O)[C@H](CO)NCc1cc(Cl)c(OCc2cccc(-c3ccccc3)c2Br)cc1OCc1cccnc1` is reported as 100% (monkey liver S9; 40 min).
`CC(=O)Nc1ccc(C(=O)Nc2cc(-c3cccs3)ccc2N)cc1` has a brain-to-plasma ratio of 0.5 (mouse; intraperitoneal, 45 mg/kg).
With `O=C1Nc2c(O)cc(Cl)cc2[C@@](C#CC2(O)CC2)(C(F)(F)F)O1` the concentration was 0.38 to 0.44 ng/mL (human, cerebrospinal fluid; dose not given).
`O=C([O-])CN1CCN(CC(=O)[O-])CCN(Cc2cc(C#Cc3ccc(OCC(=O)O)cc3)cc(C(=O)[O-])n2)CCN(CC(=O)[O-])CC1.[Eu+3]`: “Eu3+ luminescence lifetime” 1.1 ms.
`CC[C@H](C)[C@H](NC(=O)[C@H](Cc1c[nH]cn1)NC(=O)[C@H](CC(N)=O)NC(=O)[C@H](Cc1ccccc1)NC(=O)[C@H](Cc1ccc(O)cc1)NC(=O)[C@H](Cc1ccc(O)cc1)NC(=O)[C@@H](NC(=O)[C@H](CCCNC(=N)N)NC(=O)CNC(=O)[C@H](CO)NC(=O)[C@H](CO)NC(=O)[C@H](CCCNC(=N)N)NC(=O)[C@H](CC(N)=O)NC(=O)[C@H](CCSC)NC(=O)[C@H](CCCNC(=N)N)NC(=O)[C@H](CCCCN)NC(=O)[C@H](CCC(=O)O)NC(=O)[C@H](Cc1c[nH]c2ccccc12)NC(=O)CNC(=O)[C@@H]1CCCN1C(=O)[C@@H]1CCCN1C(=O)[C@H](CC(C)C)NC(=O)[C@@H](N)CCCCN)C(C)C)C(=O)N[C@H](C(=O)N[C@@H](CC(N)=O)C(=O)N[C@@H](C)C(=O)N[C@@H](CC(N)=O)C(=O)N[C@@H](CCC(N)=O)C(=O)N[C@@H](Cc1ccccc1)C(=O)N[C@@H](CCC(=O)O)C(=O)N[C@@H](CCCNC(=N)N)C(=O)N1CCC[C@H]1C(=O)N[C@@H](CO)C(=O)NCC(=O)O)[C@@H](C)O` gave a melting temperature of 49.2 ± 0.6 °C (protein folding; 50 µM, pH 7).
Under “sinus node recovery time change”, `C=CC1CC1(NC(=O)C1CC(Oc2nccc3cc(OC)ccc23)CN1C(=O)C(NC(=O)OC(C)(C)C)C(C)C)C(=O)NS(=O)(=O)C1CC1` (centres unmarked) is recorded as 144% (isolated perfused rabbit heart; 10 µM, time not given).
`Cc1ccc2c(c1)nc(CCN1C(=O)c3cccc4cccc(c34)C1=O)n2-c1ccncc1` has an AUC(0-inf) of 1100 ± 215 ng·h/mL (Sprague-Dawley rat; intravenous, 2.5 mg/kg).
With `C=C[C@@H]1C[C@]1(NC(=O)[C@@H]1C[C@@H](Oc2ncc(OC)c3ccccc23)CN1C(=O)[C@@H](NC(=O)OC(C)(C)C)C(C)(C)C)C(=O)NS(=O)(=O)C1CC1` the oral bioavailability was 19% (rat; oral, 30 mg/kg).
With `Cc1cc(NC2Cc3cc(F)c(F)cc3C2)n2nc(C(C)(F)F)nc2n1` the apparent half-life was 2.5 h (mouse, plasma; oral, 20 mg/kg).
The GI50 of `CC(=O)O[C@H]1C2=C(C(=O)C(OC(=O)c3ccc(Cl)cc3)=C(C(C)C)C2=O)[C@@]2(C)CCCC(C)(C)[C@@H]2[C@@H]1O` is reported as no more than 5 µM (MOLT-3).
Under “concentration in milk”, `CC1CC(O)(C(C)O)C(=O)OC2CCN3CC=C(COC(=O)C1(C)O)C23` (centres unmarked) is recorded as 470 to 835 ng/mL (lactating cow, milk; 16 mg/kg, recovery corrected 20%).
The logD of `COc1cc(F)c(C(C)C)cc1C1=C(CN2C(=O)O[C@H](c3cc(C(F)(F)F)cc(C(F)(F)F)c3)[C@@H]2C)CC(C)(C)CC1` is reported as 7.4.
The AUC(0-inf) of `Cc1ccccc1-c1cc(N2CC[N+](C)([O-])CC2)ncc1N(C)C(=O)C(C)(C)c1cc(C(F)(F)F)cc(C(F)(F)F)c1` is reported as 2920 ng·h/mL (healthy volunteers, plasma; oral, 450 mg, single dose, given alone).
Under “inner-sphere water number”, `Cc1cc(C)c(-c2cc(C)c(OP(=O)([O-])OCCC[C@H](C(=O)[O-])N3CCN(CC(=O)[O-])CCN(Cc4cccc(C(=O)[O-])n4)CCN(CC(=O)[O-])CC3)cc2C)c(C)c1.[Gd+3]` is recorded as 0 (free complex).
`C=CC1CC1(NC(=O)C1CC(Oc2nccc3cc(OC)ccc23)CN1C(=O)C(NC(=O)OC(C)(C)C)C(C)(C)C)C(=O)O` (centres unmarked): “sinus node recovery time change” 37% (isolated perfused rabbit heart; 10 µM, time not given).
`CCCCCCc1ccc(Oc2ccccc2C#N)c(O)c1` gave a half-life of 6.2 h (mouse; 40 mg/kg).
`CC[C@H](C)[C@H](NC(=O)CNC(=O)[C@H](CCCCN)NC(=O)[C@H](Cc1ccc(O)cc1)NC(=O)[C@H](CCCCN)NC(=O)[C@H](CC(C)C)NC(=O)[C@H](CCC(N)=O)NC(=O)[C@H](Cc1ccc(O)cc1)NC(=O)[C@H](CC(C)C)NC(=O)[C@H](CCC(=O)O)NC(=O)[C@H](CCC(N)=O)NC(=O)[C@H](Cc1c[nH]c2ccccc12)NC(=O)[C@@H](NC(=O)[C@H](CC(C)C)NC(=O)[C@H](CCCCN)NC(=O)CNC(=O)[C@H](CCCCN)NC(=O)[C@H](CC(C)C)NC(=O)[C@H](CO)NC(=O)[C@H](CC(C)C)NC(=O)[C@H](CO)NC(=O)[C@H](CC(C)C)NC(=O)[C@H](CO)NC(=O)CNC(=O)[C@H](CCCNC(=N)N)NC(=O)[C@H](CC(C)C)NC(=O)[C@H](CO)NC(=O)[C@H](CC(C)C)NC(=O)[C@H](CO)NC(=O)[C@H](CC(C)C)NC(=O)[C@H](CO)NC(=O)[C@H](CCCCN)NC(C)=O)[C@@H](C)O)C(N)=O` has a degradation time of no more than 3 weeks (Wistar rat (healthy); subcutaneous dorsal implant, dose not given).
`Nc1ncnc2c1ncn2[C@H]1C[C@H](O)[C@@H](COP(=O)(O)OP(=O)(O)[C@@H](Cl)P(=O)(O)O)O1` gave a pKa4 of 9.5 (item: bisphosphonate leaving group; aqueous solution; measured experimentally).
For `CCN(CC)c1ccc(-c2cc3c(s2)c(C(=O)OC)cc(=O)n3C)cc1`, the excitation maximum was 463 nm (dichloromethane; 10 µM).
For `Cc1cnc(Nc2ccc(C#N)cc2)nc1Nc1c(F)cc(-c2ccc(C#N)cc2)cc1F`, the intrinsic clearance was 5 mL/min/kg (human liver microsomes).
`CN1C(=O)[C@@H](Cc2ccc(O)cc2)NC(=O)CNC(=O)[C@H](Cc2ccc3ccccc3c2)NC(=O)[C@H](CCCNC(=N)N)NC(=O)[C@H]1CCCNC(=O)c1ccc(CNC(=O)CN2CCN(CC(=O)O)CCN(CC(=O)O)CCN(CC(=O)O)CC2)cc1` [gallium-68 labelled] — result for “absorbed dose coefficient”: 0.0123 mGy/MBq (PET dosimetry; human patients, adrenals).
`O=C(Nc1ccc(Br)cc1)Nc1ccc2nc(-c3ccco3)c(-c3ccco3)nc2c1` gave an oral bioavailability of 16% (rat; oral).
The logD of `COc1cc2c(NC3CCN(C)CC3)nc(N3CCCN(C)CC3)nc2cc1OCc1ccccc1` is reported as 4.2 (pH 7.4).
For `CN1CCN(c2cc(-c3ccccc3CO)c(N(C)C(=O)C(C)(C)c3cc(C(F)(F)F)cc(C(F)(F)F)c3)cn2)CC1`, the Tmax was 11.4 h (healthy volunteers, plasma; oral, 450 mg, single dose, together with: palonosetron 0.75 mg).
The pKa of `Cc1ccc(/N=N/c2c(O)ccc3ccccc23)c(C)c1` is reported as 11.7 (phenolic hydroxyl).
`COc1cc(/N=N/c2ccc([N+](=O)[O-])cc2)ccc1N(CCS(=O)(=O)O)CCS(=O)(=O)O` has a pKa of 2.6 (water; 10 µM).
The circulation half-life of `CC(=O)N[C@@H](CO)C(=O)N[C@@H](CC(=O)O)C(=O)N[C@@H](CCCCN)C(=O)N1CCC[C@H]1C(=O)O` is reported as 4.5 min.
For `CCN(CC)C(=S)c1ccc(-c2c3ccc(=[N+](C)C)cc-3sc3cc4c(cc23)C(C)(C)CCN4C)s1`, the logP was 2.7 (n-octanol/water).
With `O=C1C=Cc2c(c(-c3ccccc3)cn2S(=O)(=O)c2ccccc2)C1=O` the solubility was 4.2 µM (≈ 1.53 µg/mL) (aqueous buffer with 20% DMSO).
Under “fluorescence quantum yield”, `COCCOCCOCCOCCC(=O)NCc1cc(CNC(=O)CCOCCOCCOCCOC)cc(-c2cc3cc4nc(c(OC)c5[nH]c(cc6nc(cc2[nH]3)CC6(C)C)cc5-c2cc(CNC(=O)CCOCCOCCOCCOC)cc(CNC(=O)CCOCCOCCOCCOC)c2)CC4(C)C)c1` is recorded as 0.2 (DMF; room temperature).
`[99Tc+].[C-]#[N+]CC(C)(C)OC.[C-]#[N+]CC(C)(C)OC.[C-]#[N+]CC(C)(C)OC.[C-]#[N+]CC(C)(C)OC.[C-]#[N+]CC(C)(C)OC.[C-]#[N+]CC(C)(C)OC` gave a biliary recovery of roughly 22% (healthy human; intravenous, 3.1 mCi, time not given; baseline: dose).
`Cc1cc(N)nc(C[C@@H]2CNC[C@@H]2OCCNCCc2cccc(F)c2)c1` (racemic) — result for toxicity: “not toxic” (pregnant rabbits; dose not given).
With `CC(C)=CCC[C@](C)(O)[C@H]1CC[C@]2(C)[C@@H]1[C@H](O)C[C@@H]1[C@@]3(C)CC[C@H](O)C(C)(C)[C@@H]3CC[C@]12C` the aqueous solubility was less than 0.05 µg/mL (water).

Repeated from above:
`[99Tc+].[C-]#[N+]CC(C)(C)OC.[C-]#[N+]CC(C)(C)OC.[C-]#[N+]CC(C)(C)OC.[C-]#[N+]CC(C)(C)OC.[C-]#[N+]CC(C)(C)OC.[C-]#[N+]CC(C)(C)OC` gave a biliary recovery of roughly 22% (healthy human; intravenous, 3.1 mCi, time not given; baseline: dose).
`CN1C(=O)[C@@H](Cc2ccc(O)cc2)NC(=O)CNC(=O)[C@H](Cc2ccc3ccccc3c2)NC(=O)[C@H](CCCNC(=N)N)NC(=O)[C@H]1CCCNC(=O)c1ccc(CNC(=O)CN2CCN(CC(=O)O)CCN(CC(=O)O)CCN(CC(=O)O)CC2)cc1` [gallium-68 labelled] — result for “absorbed dose coefficient”: 0.0123 mGy/MBq (PET dosimetry; human patients, adrenals).
`Cc1ccc2c(c1)nc(CCN1C(=O)c3cccc4cccc(c34)C1=O)n2-c1ccncc1` has an AUC(0-inf) of 1100 ± 215 ng·h/mL (Sprague-Dawley rat; intravenous, 2.5 mg/kg).
`CCCCCCC[C@@H](CC(=O)O)OC(=O)C[C@@H](CCCCCCC)O[C@@H]1O[C@@H](C)[C@H](O)[C@@H](O)[C@H]1O` — result for “minimum surface tension”: 27.4 ± 0.2 mN/m (pH 8).
